Experimental data collected from several papers.
Parts stem from different laboratories: compare values within a part only. Substitutions count along the parent as printed.

Set 1
Target: Centromere-binding protein 1, full length, N-terminal tag (CBF1, Saccharomyces cerevisiae, UniProt P17106, residues 1-351)
UniProt P17106, sequence (whole entry, looked up): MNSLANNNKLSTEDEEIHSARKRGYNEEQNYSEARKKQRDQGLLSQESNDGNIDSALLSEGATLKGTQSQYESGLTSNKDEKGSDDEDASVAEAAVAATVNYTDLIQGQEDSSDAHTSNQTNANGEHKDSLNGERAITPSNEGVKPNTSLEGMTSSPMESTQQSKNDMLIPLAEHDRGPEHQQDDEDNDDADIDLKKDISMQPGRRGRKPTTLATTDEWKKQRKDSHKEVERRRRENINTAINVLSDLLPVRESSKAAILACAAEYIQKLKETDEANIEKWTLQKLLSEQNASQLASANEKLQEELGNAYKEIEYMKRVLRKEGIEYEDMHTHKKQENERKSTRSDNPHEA
Technique: protein-binding microarray
Molecule type: double-stranded DNA, one strand shown
Medium: in vitro
Concentration: 0.8 µM
Setting: whole 60-bp probe, no competitor
Direction: higher = stronger binding
Constant ends, left off below: … GTCTTGATTCGCTTGACGCTGCTG
Oligonucleotide	fluorescence intensity
TGTACGAAGCTATTTCGCATGCATATAGTAGTTAGG	554 a.u.
CTAATGTTAGTAGGTCACGAATTCTTTAATTTTTTC	895 a.u.
GAATATGTATTCATGCACGATGCAAGCATTCAATAG	533 a.u.
GAAGTGTCTGTACATGATGTACTCGGTCAAAAATAG	541 a.u.
GAAATTAATTGATATCATCAGAATTTGACGAAATAG	519 a.u.
CTATTTCCTAATGGGCACGCGACATACGTTTCATTC	887 a.u.
CTAAACTGAAATTAAGGTATCACGAGACACATGTTC	3800 a.u.
CTATATTGTGAACATCATGACAAAACGAAATGATTC	556 a.u.
CTAATCAACAACCGTCATGCAGCTGTTGTATCATTC	499 a.u.
CTAGTGGGCATAGATCACGCTTCAGCCGCTCTGTTC	857 a.u.
TGTACGAAGCTATATCACGTGCATATAGTAGTTAGG	19200 a.u.
CTACGATGGTTAGGCTTCGTGGGGTAAAAGTCGTTC	493 a.u.
GAAAGCTAGGGAGCTCACCCGCGATATTCTGTATAG	486 a.u.
GAATTACATATTTATCACGACTGTTTACGTATCTAG	571 a.u.
CTACTGATATTTTTTGACGTCACTTAGTAAGCATTC	535 a.u.
GAATGGCAAAAGGATTCCGTGATCTGTGTTCCCTAG	564 a.u.
GAACTCGCCCTCACACACGTTATAGTTATGTCGTAG	568 a.u.

Set 2
Target: RNA binding protein fox-1 homolog 2, RRM domain, GST-SBP tag (RBFOX2, Homo sapiens, UniProt O43251-10, residues 100-194)
Technique: RNA Bind-n-Seq
Molecule type: RNA
Medium: in vitro
Concentration: 365 nM
Setting: natural RNA segment, single round, ends assumed
Reference: no-protein control
Direction: higher = stronger binding
Constant ends, left off below: GGGAGUUCUACAGUCCGACGAUC … UGGAAUUCUCGGGUGCCAA
Oligonucleotide	RBNS enrichment (R)
GCCACAGCAGUGAGGAGAUUUGUGUGCUGGGGCACUCAAAAGCCUCUACAAGAUCUUCGUUAAGAGUCAAGCUGCCGGUCAGGAGUCUGACAUUUGAAUCGUGUUGUGAU	0.369
CUCCCAGUCUCAAAUUGGGCUGGGUAUGGCGGUGUAUAUGCAUGGGAAGCGUCUUGGGGAGGGUGGUAGAAGCACAAAAGAAUCACAGAAUUAUUUUCUAAGCAAAAUAA	33.5
AGCAAGAGACUGAAUGUUUCCUGAAGUAUUACCAUGACCCAAGGCAGAGAGAAACCAUGGGAACUCCCUGUGGGGAACACUCAAGAAGGCCAAGCCUCAGCAGGAAAGUG	0.426
CAAUCAGGGGUCACUUUUAUGAACAGCAUGCAGAAAAAUAGAUCUUCGGGAAUGUUUAAGAUCGAUCAGUAAAUAACUUCCCAGAAGACCACCCUAUGUCUAUUAAGCCU	26.4
CCUGGCCAUGCAUUGCCCAAGCGUGAACGUAGUGGCACCCACGUCUACCGCAGGCGUCCAGCCAGGAAAGAGCGACCCCCCUCUUGGACUGUCUUCUGGGCCCUUCCAAG	0.519
AAACCACUCCAGCUGUUAAUCUGUUUGCGCCUCCAUCCAUGGACUUGUUUCUGUUCUUUUCCAUCCACUUUGUACUCAUUUGUUUUCAUUAAAUUUUGCAUUUAUUUUGA	9.38
CUAACUUAUUUAUGUUAAAAAGAGAUUUUUUUUUAAUCUAGACAAUAUACAAGCCAAAGUGGCAUGUUUUGUGCAUUUGUAAAUGCUGUAUUGGAUAGACUAGCCCCCCC	1.91
CCCCUCCUUUUUAUUUUUUCCUUUAAAAACAUUUCAGUUAAAUUAAGCUACUGAUUUGGAUUUGUUUUAUCGUAUCCUAAAGUCUUUGUUGUUGAAAUGAAAGGUAUUUU	0.536
UCCCAGUCUGCCAGAGCCUGCACAUCAAAUAAGUGACCAUUGGAAGUAGGGUGGGGAAGUGUGGAGGAGGUGACUGGCCUGCCUCAAAUGCAUGUUUUGAGAUGUUUGAC	31.9
ACUCUAAUCUUAAACAUGUUUCUUUAAAUAUUUAUAAGGCAGUUUAUUACAGAAUAUUUUCAUGCAAUCAUGUGCACAUUAUUGGUAGCAAACAUAGUAUAUCCUUUAGU	0.656
AUGCCAUACGGCCCUUUAUUGCCAUCCUAUACUUGUAAAUACGAUCCUGCUCUCAAGUGAAAUGAGUUAUAUGAGAUAUAUAUAUAUAUAUUUGGUCUUAACUGGAUUUU	0.493
CUUCUGGCUCCUGUGAGGGCACUGUAUUGUCCAGACGCUUGGCAACGACUCUGCCUGCAAGUGGCAAAUACCAACAUAACCACAUCUUCCUUUUAGUUGCCACAAAUAUU	0.858

Set 3
Target: Fragile X messenger ribonucleoprotein 1, C-terminal low-complexity region (Fmr1, Mus musculus, UniProt P35922)
Technique: RNA Bind-n-Seq
Molecule type: RNA
Medium: in vitro
Concentration: 200 nM
Setting: whole 134-nt RNA, ends assumed
Added: 150 mM KCl
Reference: input library
Direction: higher = stronger binding
Constant ends, left off below: GGGAGUUCUACAGUCCGACGAUC … UGGAAUUCUCGGGUGUCAAGG
Oligonucleotide	log2 enrichment
UUUGUCCCUGCUCAGGAUGAGACUUCUGUGAGCAGCGAGGAUUUUGAUAUGAGCGACUCCACAUGGAUGUCAGCUGACCCGCACCUGGCC	-0.503
UCAAGUCCUGUGCUACACAUCGUAUGUACCGAAUCGGGUUUGGGAGGGAAAGGGAAAGUAUUAUGUUACGCCGUUCGGAUCUGCACUUCC	0.948
UGGGAGGUGGAUUUUGUUUAUUUUUUUAGCUCAUUUCCAGGGGUGGGAAUUUUUUUUUAAUAUGUGUCAUGAAUAAAGUUGUUUCUGAAA	0.444
UAACUUUAGAGGUGGAUCUGAUGGAUAUGGCAGUGGACGUGGAUUUGGGGAUGGCUAUAAUGGGUAUGGAGGAGGACCUGGAGGUGGCAA	0.288
CUCAAGUCCUGUGCUACACAUCGUAUGUACCGAAUCGGUGGAAAAAGGUUUGGAAAGUAUUAUGUUACGCCGUUCGGAUCUGCACUUCCA	-0.481
UCCUGUGCUACACAUCGUAUGUACCGAAUCAAACCCCCAAAUUUUUAAAUUUUUUUAAAAAAGUAUUAUGUUACGCCGUUCGGAUCUGCA	0.519
GCAGGAAGUAAAAACAAAUGGAAAUGCUUCGGAUAGUUGCAGGGGUGGGGGUUGCUAAGGAAAGGGUGGGAUGGGAGUGGGUAAAGAGUU	0.0943
ACCAUGCAGGUGGGCAUCUUUGGGAAGUGGGGCAAGGGGGGGAUAGGGAGGGGGGUAACACUUUGGGAACAGGUGGUCCCAGGUCGGUUC	0.8
UUUCUGUGUGCUUAGGUGCCCGAGCUACUGAGGGUCUAAGUCCGGGCAGCCGAAGAGUGUGGUAGGUAACGGUCCUCAGCGCAAGGGUCA	-0.414
UCAAGUCCUGUGCUACACAUCGUAUGUACCGAAUCGGGCCCGGGCCCGGCCCGGAAAGUAUUAUGUUACGCCGUUCGGAUCUGCACUUCC	-0.728

Set 4
Target: Histone acetyltransferase KAT6A, winged helix 2, GST fusion (KAT6A, Homo sapiens, UniProt Q92794, residues 85-181)
Technique: protein binding microarray
Molecule type: double-stranded DNA, one strand shown
Medium: in vitro
Concentration: not given
Setting: 8-mer, flanks averaged, mean of 2 arrays, mostly near background
Reference: not given
Direction: higher = stronger binding
Construct (chain): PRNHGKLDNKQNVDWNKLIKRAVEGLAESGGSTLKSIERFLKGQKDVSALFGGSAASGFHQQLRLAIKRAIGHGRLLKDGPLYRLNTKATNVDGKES
Oligonucleotide	E-score
CCACCGGC	0.102
GTTGCGAA	0.133
ATAATATA	0.151
TAAGCGGA	0.113
CAGGGTTC	0.0169
GCCACAAC	0.156
AATTAAAC	0.0673
GTTCTCGA	-0.155
CCCGGTGC	-0.0108
ACGAATGA	-0.0498
CCCGCCCC	0.31
ACCCTCTC	-0.0315
CCTTGCCG	0.149
AGACATGA	-0.0548
CCAACCCC	-0.0604
ACCCCACA	-0.0169
GCTATCAC	-0.023
CCTGGAGC	-0.0365
CAAAAACC	0.0921
CCAGGGAC	-0.146
AAGGATCT	-0.13
CTTCACAA	-0.155
ATGCCCAG	0.155
ATAAGAAT	0.143
TGGGACCA	-0.0183

Set 5
Target: PABPC1L2, full length, GST fusion (mouse, UniProt A0ABA7IW68)
Technique: RNAcompete
Molecule type: RNA
Medium: in vitro
Concentration: 20 nM
Setting: 7-mer, probes averaged, single round
Reference: mean of 7-mers
Direction: higher = stronger binding
Construct (chain): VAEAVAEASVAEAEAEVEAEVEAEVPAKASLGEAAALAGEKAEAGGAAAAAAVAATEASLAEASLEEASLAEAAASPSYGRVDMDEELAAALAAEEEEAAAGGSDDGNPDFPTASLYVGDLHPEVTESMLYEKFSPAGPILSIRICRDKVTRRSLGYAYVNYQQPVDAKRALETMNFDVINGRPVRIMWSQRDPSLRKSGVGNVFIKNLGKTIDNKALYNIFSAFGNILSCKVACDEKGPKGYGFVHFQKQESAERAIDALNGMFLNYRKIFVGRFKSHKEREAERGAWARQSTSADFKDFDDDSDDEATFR
Oligonucleotide	7-mer Z-score
UGAAAGC	-0.0536
AUACAGU	-0.0101
CAGAUAU	-0.115
CAUGCAA	0.017
AAGUUAC	0.155
CAAGUAA	0.0315
GCUGCUC	-0.24
CGAUGCC	-0.282
AAGACGG	0.423
GCAGCCG	-0.0591
ACAAAUG	0.715
CGAUCCC	-0.405
AAGAGUG	0.166
AGAUUGC	-0.246
GAAAGUA	0.809
CCUCGAG	-0.22
CUGAUUG	-0.0881
UCAUGGG	0.0623
UCAACCU	-0.26
UAAAGCC	0.298
GUCUAUA	-0.193
ACAUUGC	0.00617
GCAUAAG	-0.0373
AUAUGAG	0.102
AGUGACU	-0.237

Set 6
Target: Sal-like protein 4, full length isoform A (SALL4, Homo sapiens, UniProt Q9UJQ4, residues 1-1053)
UniProt Q9UJQ4, sequence (whole entry, looked up): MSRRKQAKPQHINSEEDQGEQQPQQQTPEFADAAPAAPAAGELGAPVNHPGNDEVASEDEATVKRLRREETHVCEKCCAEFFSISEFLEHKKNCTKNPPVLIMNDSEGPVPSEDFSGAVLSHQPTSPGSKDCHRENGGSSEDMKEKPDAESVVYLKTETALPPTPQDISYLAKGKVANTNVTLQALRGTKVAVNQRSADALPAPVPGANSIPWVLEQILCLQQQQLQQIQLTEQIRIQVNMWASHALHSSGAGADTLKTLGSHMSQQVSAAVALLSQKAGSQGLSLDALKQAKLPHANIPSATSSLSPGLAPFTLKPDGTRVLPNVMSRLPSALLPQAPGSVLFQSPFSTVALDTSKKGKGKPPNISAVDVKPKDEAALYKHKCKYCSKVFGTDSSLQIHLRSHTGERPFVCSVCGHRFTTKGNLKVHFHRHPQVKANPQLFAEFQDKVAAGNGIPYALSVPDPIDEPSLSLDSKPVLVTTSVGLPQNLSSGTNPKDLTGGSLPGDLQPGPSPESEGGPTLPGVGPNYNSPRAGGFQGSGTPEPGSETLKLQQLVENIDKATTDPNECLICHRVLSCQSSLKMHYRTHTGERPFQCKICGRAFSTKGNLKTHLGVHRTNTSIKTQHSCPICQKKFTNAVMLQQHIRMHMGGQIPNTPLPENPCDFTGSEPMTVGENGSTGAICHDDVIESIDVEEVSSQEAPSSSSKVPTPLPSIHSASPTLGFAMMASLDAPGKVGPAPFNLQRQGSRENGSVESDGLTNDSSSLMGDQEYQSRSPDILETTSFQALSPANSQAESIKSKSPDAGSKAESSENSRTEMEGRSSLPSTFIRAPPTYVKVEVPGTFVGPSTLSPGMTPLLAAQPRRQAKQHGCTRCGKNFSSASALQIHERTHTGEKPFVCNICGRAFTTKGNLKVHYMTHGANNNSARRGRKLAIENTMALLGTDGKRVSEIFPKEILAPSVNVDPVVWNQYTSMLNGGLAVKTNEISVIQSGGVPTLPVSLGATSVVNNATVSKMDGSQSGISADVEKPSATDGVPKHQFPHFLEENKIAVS
Technique: universal PBM
Molecule type: double-stranded DNA, one strand shown
Medium: in vitro
Concentration: 600 nM
Setting: 8-mer, flanks averaged, mean of replicates
Direction: higher = stronger binding
Oligonucleotide	E-score
CACTGTGG	-0.309
ATGTTGGG	-0.15
ACCCTGGG	-0.328
ACAAATTA	0.32
TAACGAAA	0.34
CCGTCGTA	-0.0474
GGGTCTCA	-0.185
CTATAAAG	0.227
CCGCCCGC	-0.331
GATGTAAC	0.148
TAAAGGTA	0.208
GACCAAAC	-0.11
CACGTTCC	-0.177
GGCTGCTA	-0.0926
CACGCTAG	-0.0871
GATCCGCC	-0.195

Set 7
Target: CCND3, cyclin fold, Cln2 fusion (human)
Technique: yeast growth competition, sequencing
Medium: yeast
Setting: strong parent motif
Reference: not given
Direction: higher = stronger binding
Parent: INSM1 docking peptide (human); PKAIRKLHFEDEV; partner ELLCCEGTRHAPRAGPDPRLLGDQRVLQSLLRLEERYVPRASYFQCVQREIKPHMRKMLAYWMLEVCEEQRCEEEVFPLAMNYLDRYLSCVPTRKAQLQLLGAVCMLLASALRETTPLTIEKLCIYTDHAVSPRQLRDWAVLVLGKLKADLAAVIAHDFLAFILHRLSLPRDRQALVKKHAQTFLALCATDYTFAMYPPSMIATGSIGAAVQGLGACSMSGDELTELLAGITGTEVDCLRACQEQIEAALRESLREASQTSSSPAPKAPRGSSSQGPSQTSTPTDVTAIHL
Variant	normalised enrichment score
PKAIRKLHFYDEV [E10Y]	0.478
PKAIRKLHFEDDV [E12D]	1.14
PKAIRKLHLEDEV [F9L]	0.18
PKAIRKLHFEDKV [E12K]	0.92
PKAIRKLHFEHEV [D11H]	0.511
PKAIRKLHDEDEV [F9D]	-0.0724
PCAIRKLHFEDEV [K2C]	1.63
PKAIRKLHFKDEV [E10K]	0.304
PKAIRKLHFTDEV [E10T]	0.699
PKAIRKDHFEDEV [L7D]	-0.0192
PKAIRKLHFEIEV [D11I]	0.504
PKAIRKQHFEDEV [L7Q]	-0.11
PKAIRKLHHEDEV [F9H]	0.551
PKAINKLHFEDEV [R5N]	-0.106
PKAIRGLHFEDEV [K6G]	-0.0423
PKAIRKEHFEDEV [L7E]	0.264
PKAIRKLHFDDEV [E10D]	0.883
PKAIRKLHFEDIV [E12I]	0.88
PKGIRKLHFEDEV [A3G]	0.911

Repeated from above (set 4):
Oligonucleotide	E-score
ATGCCCAG	0.155
GCCACAAC	0.156
ATAAGAAT	0.143
GTTGCGAA	0.133
CCACCGGC	0.102
CCAGGGAC	-0.146
GTTCTCGA	-0.155
CCAACCCC	-0.0604
CAAAAACC	0.0921
ACCCCACA	-0.0169
CCTTGCCG	0.149
TAAGCGGA	0.113
